Measurements collected from several papers.
Protocols differ between the studies behind these lines. Values joined by “and” are separate records of one study, mostly repeats; a detail may differ. Numbers after ± are the reported error.
Chain of UniProt Q86UE8 (whole entry, looked up): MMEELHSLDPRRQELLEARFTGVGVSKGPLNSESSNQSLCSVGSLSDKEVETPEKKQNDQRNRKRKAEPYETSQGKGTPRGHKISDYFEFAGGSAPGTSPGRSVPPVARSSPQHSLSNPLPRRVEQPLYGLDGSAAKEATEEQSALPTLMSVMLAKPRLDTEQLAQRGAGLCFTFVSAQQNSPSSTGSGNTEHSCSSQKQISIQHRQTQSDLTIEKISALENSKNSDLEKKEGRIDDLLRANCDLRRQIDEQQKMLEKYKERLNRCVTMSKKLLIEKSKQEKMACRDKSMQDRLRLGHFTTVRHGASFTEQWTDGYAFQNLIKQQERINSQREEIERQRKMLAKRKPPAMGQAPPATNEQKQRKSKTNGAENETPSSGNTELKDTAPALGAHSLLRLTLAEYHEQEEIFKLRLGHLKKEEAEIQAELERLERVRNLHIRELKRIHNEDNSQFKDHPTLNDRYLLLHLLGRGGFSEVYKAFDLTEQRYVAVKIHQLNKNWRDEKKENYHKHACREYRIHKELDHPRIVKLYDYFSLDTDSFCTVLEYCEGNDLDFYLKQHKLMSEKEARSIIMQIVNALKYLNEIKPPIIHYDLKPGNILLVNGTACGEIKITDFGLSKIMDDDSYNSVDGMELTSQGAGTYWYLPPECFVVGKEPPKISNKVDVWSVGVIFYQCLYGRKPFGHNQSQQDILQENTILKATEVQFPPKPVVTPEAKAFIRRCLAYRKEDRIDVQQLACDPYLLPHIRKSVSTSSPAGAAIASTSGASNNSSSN
Chain of UniProt Q15349 (whole entry, looked up): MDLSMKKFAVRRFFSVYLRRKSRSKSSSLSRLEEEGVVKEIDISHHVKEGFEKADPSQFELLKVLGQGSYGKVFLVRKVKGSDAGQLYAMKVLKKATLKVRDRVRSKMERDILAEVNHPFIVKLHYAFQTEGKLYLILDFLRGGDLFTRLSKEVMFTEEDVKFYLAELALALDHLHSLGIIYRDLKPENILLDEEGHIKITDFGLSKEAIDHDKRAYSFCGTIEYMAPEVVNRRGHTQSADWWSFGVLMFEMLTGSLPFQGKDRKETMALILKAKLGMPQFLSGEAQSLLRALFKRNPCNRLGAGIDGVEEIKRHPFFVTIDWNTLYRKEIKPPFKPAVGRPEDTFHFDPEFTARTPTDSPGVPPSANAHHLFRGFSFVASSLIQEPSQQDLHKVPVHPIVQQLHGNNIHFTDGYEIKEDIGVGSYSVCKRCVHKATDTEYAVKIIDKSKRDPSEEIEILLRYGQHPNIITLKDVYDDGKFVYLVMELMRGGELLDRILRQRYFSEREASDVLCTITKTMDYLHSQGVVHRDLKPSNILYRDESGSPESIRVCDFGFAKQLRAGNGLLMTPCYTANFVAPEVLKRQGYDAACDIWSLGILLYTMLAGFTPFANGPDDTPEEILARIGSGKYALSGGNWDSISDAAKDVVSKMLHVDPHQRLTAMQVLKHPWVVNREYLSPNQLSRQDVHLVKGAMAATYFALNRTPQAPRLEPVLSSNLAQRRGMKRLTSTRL

| SMILES | tested on | assay | system | setting | scale | endpoint | value |
| --- | --- | --- | --- | --- | --- | --- | --- |
| COc1ccccc1-c1n[nH]c2nc(NC3CCN(C(=O)Cc4ccc(F)cc4F)CC3)ncc12 | – | bead binding, competition bead pull-down, refers to: LMJF.34.3670 | Leishmania donovani extract | 10 µM | relative to: vehicle | relative abundance | 0.91 |
| CN(C)[C@H]1C[C@@]23CC[C@@]4(O2)C(=CC[C@]2(C)[C@@H](c5ccc6ccncc6c5)CC[C@H]24)C=C3[C@@H](O)[C@@H]1O | Ribosomal protein S6 kinase alpha-2, kinase domain 1 (RPS6KA2, Homo sapiens, UniProt Q15349) | ATP probe labelling, inhibitor, KiNativ profiling | – | 1 µM | – | inhibition | 3.4% |
| O=C1NC2(CC2)COc2ncc(F)cc2[C@H]2COCCN2c2ccn3ncc1c3n2 | – | – | Sprague-Dawley rat, male, serum | oral, 20 mg/kg/day, end of recovery, 4-week subacute toxicity | – | serum sodium | 144 ± 2 mmol/L |
| CC(C)CC(C(=O)N1CC2(CC1C#N)C(=O)Nc1ccccc12)N(C)C(=O)c1cc2c(F)cc(F)c(F)c2[nH]1 (stereo not shown) | Human coronavirus 229E | cytopathic effect | MRC5 | 80 nM | – | inhibition | 105% |
| O=C1NC(=O)c2c1c1cc(F)c[n+]3c1c1c2c2cc(O)ccc2[n]1[Ru-4]312([N]=C=S)[S+]3CC[S+]1CC[S+]2CC3 (stereo not shown) | TLK2 (Homo sapiens, UniProt Q86UE8) | enzyme activity | – | 100 nM, human enzyme, with: 10 µM ATP | relative to: untreated | remaining activity | 110% |
| CC(C)(C)C(=O)OCOP(=O)(OCOC(=O)C(C)(C)C)C1CCCN(O)C1=O (stereo not shown) | OVCAR-5 | – | – | – | – | CC50 | > 100 µM |
| Cc1cc(C(=O)Nc2nc3cccc(C)c3n2[C@H]2CCCCN(C(=O)/C=C/CN(C)C)C2)ccn1 | Trypanosoma brucei brucei | – | 2T1 CLK1 overexpressing | 1.25 µM, DMSO pretreated | relative to: maximum | survival | 67.9% and 56.9% and 56.5% and 46.2% |
| CC(C)[C@@H]1NC(=O)[C@@H]2CCCN2C(=O)[C@@H](C(C)C)NC(=O)[C@H]2CCCN2C(=O)[C@H](C(C)C)NC(=O)[C@@H]2CCCN2C(=O)[C@@H](C(C)C)NC(=O)[C@H]2CCCN2C(=O)[C@H](C(C)C)NC(=O)[C@@H]2CCCN2C(=O)[C@@H](C(C)C)NC(=O)[C@H]2CCCN2C1=O | – | – | sheep lipid bilayer | 10 µM, pH 7.4, 23 °C, with: 10 mM K+ vs NH4 chloride | – | bi-ionic potential | -66 mV |
| O=C(O)C(Cl)Cl.OCCN(CCO)CCO | Eleusine indica | – | – | 15 mg/mL, 21 days, post-emergence, greenhouse | – | herbicidal inhibition | -28% |
| COc1ccccc1-c1n[nH]c2nc(N[C@H]3CC[C@H](NS(=O)(=O)CC(C)C)CC3)ncc12 | – | bead binding, competition bead pull-down, refers to: LINJ.21.2130 | Leishmania donovani extract | 10 µM | relative to: vehicle | relative abundance | 2.05 |
| CCCCCCCCCCCC(=O)C(C)C(=O)N1CCC[C@H]1C(=O)NC(C)(C)C(=O)NC(C)(C)C(=O)NC(C)(C)C(=O)N[C@](C)(CC)C(=O)NCCC(=O)N[C@@H](C)C(=O)N[C@](C)(CC)C(=O)N[C@@H](C)C(=O)N[C@@H](CC(C)C)C(=O)N[C@](C)(CC)C(=O)NCCC(=O)N[C@@H](C)C(=O)N[C@](C)(CC)C(=O)NCCC(=O)N[C@@H](C)C(=O)NC(C)(C)C(=O)NC(C)(C)C(=O)NC(C)(C)C(=O)N[C@@H](C)C(=O)N[C@@H](CC(=O)O)C(=O)O (stereo partly shown) | chitin | pull-down, LC-MS | – | 1 h, pH 7.0, 30 °C, with: chitin 1 mg/mL | higher = less bound | unbound compound (MS peak area) | 1590 a.u. |
| Cc1cc(Oc2nc(N3CC[C@@H](c4ccncc4)C3)ncc2F)[nH]n1 | SAOS-2 | cell proliferation | bone cancer | – | – | IC50 | 95.5 µM |
| CC[C@H](C)[C@H](NC(=O)[C@H](CO)NC(=O)[C@H](Cc1ccc(O)cc1)NC(=O)[C@H](Cc1ccc(O)cc1)NC(=O)[C@H](CC(N)=O)NC(=O)CNC(=O)[C@H](CO)NC(=O)[C@H](Cc1ccc(O)cc1)NC(=O)[C@H](CO)NC(=O)[C@H](CO)NC(=O)[C@H](CC(N)=O)NC(=O)COCCOCCNC(=O)CN1CCN(CC(=O)O)CCN(CC(=O)O)CCN(CC(=O)O)CC1)C(=O)N[C@@H](CC(C)C)C(N)=O [copper-64 labelled] | – | dynamic PET | mouse, tamoxifen-induced PDAC, blood | intravenous, 0.1 µg/mouse, 2.5 min | – | tumour uptake | 18.4 %ID/mL |

Some of these lines once more:
| SMILES | tested on | assay | system | setting | scale | endpoint | value |
| --- | --- | --- | --- | --- | --- | --- | --- |
| Cc1cc(Oc2nc(N3CC[C@@H](c4ccncc4)C3)ncc2F)[nH]n1 | SAOS-2 | cell proliferation | bone cancer | – | – | IC50 | 95.5 µM |
| O=C(O)C(Cl)Cl.OCCN(CCO)CCO | Eleusine indica | – | – | 15 mg/mL, 21 days, post-emergence, greenhouse | – | herbicidal inhibition | -28% |
